Published values from different studies.
Parts stem from different laboratories: compare values within a part only.
UniProt Q14289, sequence (whole entry, looked up): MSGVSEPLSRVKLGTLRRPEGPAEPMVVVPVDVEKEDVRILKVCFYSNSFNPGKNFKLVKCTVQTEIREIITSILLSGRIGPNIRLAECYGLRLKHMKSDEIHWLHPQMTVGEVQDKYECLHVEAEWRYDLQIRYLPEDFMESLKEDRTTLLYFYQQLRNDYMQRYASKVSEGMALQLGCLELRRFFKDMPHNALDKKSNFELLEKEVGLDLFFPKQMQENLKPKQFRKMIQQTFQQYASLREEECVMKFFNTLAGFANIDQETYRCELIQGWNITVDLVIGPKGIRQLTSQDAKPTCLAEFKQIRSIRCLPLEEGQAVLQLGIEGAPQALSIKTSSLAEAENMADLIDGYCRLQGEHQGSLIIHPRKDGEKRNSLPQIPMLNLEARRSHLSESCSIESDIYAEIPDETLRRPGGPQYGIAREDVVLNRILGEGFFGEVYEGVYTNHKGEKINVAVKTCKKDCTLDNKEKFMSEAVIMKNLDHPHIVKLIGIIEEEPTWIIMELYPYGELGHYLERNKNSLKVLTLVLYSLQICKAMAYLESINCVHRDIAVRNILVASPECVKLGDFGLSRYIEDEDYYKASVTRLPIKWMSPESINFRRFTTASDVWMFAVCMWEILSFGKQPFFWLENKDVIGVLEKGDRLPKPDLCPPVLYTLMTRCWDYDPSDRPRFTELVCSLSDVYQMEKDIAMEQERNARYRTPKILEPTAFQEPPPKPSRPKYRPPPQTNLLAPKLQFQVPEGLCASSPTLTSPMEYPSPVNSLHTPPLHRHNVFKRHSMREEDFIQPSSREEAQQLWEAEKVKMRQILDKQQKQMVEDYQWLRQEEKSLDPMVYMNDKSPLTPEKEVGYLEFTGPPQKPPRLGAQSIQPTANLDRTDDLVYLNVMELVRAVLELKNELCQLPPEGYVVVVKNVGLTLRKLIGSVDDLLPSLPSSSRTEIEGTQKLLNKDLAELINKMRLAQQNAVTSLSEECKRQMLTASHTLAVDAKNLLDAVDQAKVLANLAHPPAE
UniProt P25098, sequence (whole entry, looked up): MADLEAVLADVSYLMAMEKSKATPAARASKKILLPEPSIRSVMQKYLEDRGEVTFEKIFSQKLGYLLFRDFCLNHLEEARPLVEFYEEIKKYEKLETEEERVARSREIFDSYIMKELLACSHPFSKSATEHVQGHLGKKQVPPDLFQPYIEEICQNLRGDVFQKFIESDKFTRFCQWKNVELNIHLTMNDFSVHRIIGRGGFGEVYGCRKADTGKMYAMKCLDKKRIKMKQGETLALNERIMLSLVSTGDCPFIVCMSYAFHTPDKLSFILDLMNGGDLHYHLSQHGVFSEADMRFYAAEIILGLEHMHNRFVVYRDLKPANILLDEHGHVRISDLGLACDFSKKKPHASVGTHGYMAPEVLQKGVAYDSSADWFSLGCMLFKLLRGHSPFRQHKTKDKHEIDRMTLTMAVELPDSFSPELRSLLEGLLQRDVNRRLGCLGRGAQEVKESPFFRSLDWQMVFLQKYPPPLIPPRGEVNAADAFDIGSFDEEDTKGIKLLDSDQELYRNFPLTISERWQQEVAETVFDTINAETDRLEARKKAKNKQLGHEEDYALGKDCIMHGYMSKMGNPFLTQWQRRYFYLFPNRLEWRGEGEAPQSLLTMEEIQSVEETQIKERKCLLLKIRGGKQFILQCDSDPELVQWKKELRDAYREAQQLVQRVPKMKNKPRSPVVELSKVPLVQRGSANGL
UniProt Q9UM73, sequence (whole entry, looked up): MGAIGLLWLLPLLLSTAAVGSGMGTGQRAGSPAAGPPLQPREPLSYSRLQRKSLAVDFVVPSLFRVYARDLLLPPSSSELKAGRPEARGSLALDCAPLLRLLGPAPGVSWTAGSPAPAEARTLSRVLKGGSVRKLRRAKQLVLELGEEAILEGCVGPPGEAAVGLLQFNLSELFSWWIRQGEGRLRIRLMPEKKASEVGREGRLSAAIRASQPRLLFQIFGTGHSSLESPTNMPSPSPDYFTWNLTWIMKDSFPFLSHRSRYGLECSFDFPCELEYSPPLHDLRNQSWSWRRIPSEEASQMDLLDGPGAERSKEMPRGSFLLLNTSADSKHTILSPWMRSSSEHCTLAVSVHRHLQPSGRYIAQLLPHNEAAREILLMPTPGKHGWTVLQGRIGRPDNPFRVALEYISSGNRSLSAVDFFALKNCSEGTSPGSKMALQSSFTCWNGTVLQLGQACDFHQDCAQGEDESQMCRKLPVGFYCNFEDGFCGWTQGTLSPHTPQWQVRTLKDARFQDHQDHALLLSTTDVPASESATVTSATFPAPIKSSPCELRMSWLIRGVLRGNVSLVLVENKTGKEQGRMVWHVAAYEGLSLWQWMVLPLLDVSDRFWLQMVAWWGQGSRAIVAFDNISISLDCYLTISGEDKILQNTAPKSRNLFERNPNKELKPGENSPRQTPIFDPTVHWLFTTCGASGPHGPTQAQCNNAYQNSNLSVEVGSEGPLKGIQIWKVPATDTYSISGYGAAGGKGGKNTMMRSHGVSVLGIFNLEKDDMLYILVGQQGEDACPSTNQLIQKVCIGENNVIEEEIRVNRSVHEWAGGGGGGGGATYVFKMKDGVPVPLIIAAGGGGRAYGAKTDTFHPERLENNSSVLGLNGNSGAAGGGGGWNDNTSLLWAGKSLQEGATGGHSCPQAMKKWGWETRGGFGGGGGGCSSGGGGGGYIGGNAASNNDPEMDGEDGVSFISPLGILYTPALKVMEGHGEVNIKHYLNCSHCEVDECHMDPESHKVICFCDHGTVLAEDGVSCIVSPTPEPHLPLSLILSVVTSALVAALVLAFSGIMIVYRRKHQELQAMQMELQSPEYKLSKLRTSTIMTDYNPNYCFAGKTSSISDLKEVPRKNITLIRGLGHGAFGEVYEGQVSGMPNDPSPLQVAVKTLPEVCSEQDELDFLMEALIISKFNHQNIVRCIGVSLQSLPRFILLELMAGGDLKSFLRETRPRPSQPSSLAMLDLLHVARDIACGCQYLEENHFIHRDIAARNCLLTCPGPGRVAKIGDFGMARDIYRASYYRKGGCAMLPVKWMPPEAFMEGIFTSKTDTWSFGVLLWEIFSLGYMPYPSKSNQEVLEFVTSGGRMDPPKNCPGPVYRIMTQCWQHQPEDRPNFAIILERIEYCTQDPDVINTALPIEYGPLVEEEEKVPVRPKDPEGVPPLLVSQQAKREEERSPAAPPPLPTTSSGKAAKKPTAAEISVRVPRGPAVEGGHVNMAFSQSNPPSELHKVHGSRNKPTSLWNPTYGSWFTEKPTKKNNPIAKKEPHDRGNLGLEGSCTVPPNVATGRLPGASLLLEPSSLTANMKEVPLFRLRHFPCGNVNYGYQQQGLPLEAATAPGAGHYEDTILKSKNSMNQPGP
UniProt O00141, sequence (whole entry, looked up): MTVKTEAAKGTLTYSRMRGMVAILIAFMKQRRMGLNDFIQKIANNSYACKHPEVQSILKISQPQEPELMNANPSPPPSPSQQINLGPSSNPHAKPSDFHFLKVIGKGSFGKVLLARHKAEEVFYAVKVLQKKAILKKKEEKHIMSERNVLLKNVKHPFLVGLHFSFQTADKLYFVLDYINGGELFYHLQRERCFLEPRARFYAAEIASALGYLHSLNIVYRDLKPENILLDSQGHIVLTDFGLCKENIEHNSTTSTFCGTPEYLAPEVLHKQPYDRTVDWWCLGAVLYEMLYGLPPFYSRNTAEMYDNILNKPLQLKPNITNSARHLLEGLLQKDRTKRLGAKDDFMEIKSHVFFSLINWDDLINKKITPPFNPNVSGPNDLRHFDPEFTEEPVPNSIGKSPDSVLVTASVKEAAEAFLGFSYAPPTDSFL

Block 1
Target: Serine/threonine-protein kinase 26 (STK26, Homo sapiens, UniProt Q9P289)
UniProt Q9P289, sequence (whole entry, looked up): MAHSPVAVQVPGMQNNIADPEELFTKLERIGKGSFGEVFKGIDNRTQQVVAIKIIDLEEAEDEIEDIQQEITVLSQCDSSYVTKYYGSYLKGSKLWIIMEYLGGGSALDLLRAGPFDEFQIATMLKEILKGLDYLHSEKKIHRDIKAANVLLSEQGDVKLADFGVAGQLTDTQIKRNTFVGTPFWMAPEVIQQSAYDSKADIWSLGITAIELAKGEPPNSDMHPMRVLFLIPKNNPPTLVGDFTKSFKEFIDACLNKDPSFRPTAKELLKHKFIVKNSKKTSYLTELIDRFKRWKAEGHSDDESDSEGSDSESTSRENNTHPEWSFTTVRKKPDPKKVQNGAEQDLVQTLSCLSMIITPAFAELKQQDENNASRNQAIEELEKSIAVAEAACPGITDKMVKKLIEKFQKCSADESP
Read-out: enzyme activity
Action: inhibitor
Concentration: 0.5 µM
Baseline: control
Measurement: remaining activity
C[S+]([O-])c1ccc(-c2nc(-c3ccncc3)c(-c3ccc(F)cc3)[nH]2)cc1 (centres unmarked): 96.8%
COc1ccc(Cl)cc1NC(=O)Nc1cc(C)nc2ccccc12: 77.6%
O=c1cc(N2CCOCC2)oc2c1ccc1ccccc12: 93.2%
CCOc1cc2ncnc(Nc3cccc(Br)c3)c2cc1OCC: 94.9%
COc1cc2ncnc(N3CCN(C(=O)Nc4ccc(Oc5ccccc5)cc4)CC3)c2cc1OC: 95.4%
Cn1cnc2cc3c(Nc4cccc(Br)c4)ncnc3cc21: 94.3%
Nc1[nH]nc2nnc(-c3c(-c4ccccc4)nn4ccccc34)cc12: 75.9%
COc1cc2ncnc(Nc3ccc(OCc4ccccc4)cc3)c2cc1OC: 91.6%
CN(C)CCCn1cc(C2=C(c3c[nH]c4ccccc34)C(=O)NC2=O)c2ccccc21: 37.2%
CC(C)c1nn(-c2c(Cl)cccc2Cl)c2nc(Cc3ccc(OCCO)cc3)[nH]c(=O)c12: 46.8%
Cc1nc(Nc2ncc(C(=O)Nc3c(C)cccc3Cl)s2)cc(N2CCN(CCO)CC2)n1: 84.1%
O=C(Nc1ccc(Cl)cc1)c1ccccc1NCc1ccncc1: 90.9%
COc1ccc(-c2cnc3c(-c4ccsc4)cnn3c2)cc1: 95.7%
CCC(=O)Nc1ccc2ncnc(Nc3cccc(Br)c3)c2c1: 97.6%
CC(=O)O/N=C1/C(c2c(O)[nH]c3cc(Br)ccc23)=Nc2ccccc21: 78.7%
O=C1NC(=O)/C(=C/c2ccc3nccnc3c2)S1: 91%
COc1cc2ncc(-c3ccccc3)nc2cc1OC: 109%
CS(=O)(=O)CCNCc1ccc(-c2ccc3ncnc(Nc4ccc(OCc5cccc(F)c5)c(Cl)c4)c3c2)o1: 110%
Cn1cc(/C=C2\C(=O)Nc3ccc(S(N)(=O)=O)cc32)c2ccccc21: 101%
CC(C)[C@H](CO)Nc1nc(Nc2cccc(Cl)c2)c2ncn(C(C)C)c2n1: 100%
Cc1ccc(NC(=O)c2ccc(CN3CCN(C)CC3)cc2)cc1Nc1nccc(-c2cccnc2)n1: 103%
CCN1/C(=C/C(C)=O)Sc2ccc(OC)cc21: 87.9%

Block 2
Target: Calcium/calmodulin-dependent protein kinase type II subunit alpha (CAMK2A, Homo sapiens, UniProt Q9UQM7)
UniProt Q9UQM7, sequence (whole entry, looked up): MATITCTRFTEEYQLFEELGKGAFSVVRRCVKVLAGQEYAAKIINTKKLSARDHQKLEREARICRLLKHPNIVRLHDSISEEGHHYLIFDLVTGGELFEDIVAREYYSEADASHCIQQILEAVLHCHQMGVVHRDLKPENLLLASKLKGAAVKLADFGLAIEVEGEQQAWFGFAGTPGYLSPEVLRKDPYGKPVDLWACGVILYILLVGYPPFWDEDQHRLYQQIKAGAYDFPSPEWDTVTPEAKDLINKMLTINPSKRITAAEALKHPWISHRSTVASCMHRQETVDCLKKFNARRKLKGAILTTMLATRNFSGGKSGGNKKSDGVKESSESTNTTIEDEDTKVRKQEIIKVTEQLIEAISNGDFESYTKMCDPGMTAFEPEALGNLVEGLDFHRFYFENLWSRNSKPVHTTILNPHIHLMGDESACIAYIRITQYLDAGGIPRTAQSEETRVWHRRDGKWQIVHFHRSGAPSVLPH
Read-out: enzyme activity
Action: inhibitor
Concentration: 10 µM
Measurement: inhibition
COc1ccc2cc(CCC(C)=O)ccc2c1: 1%
O=C(O)[C@H]1O[C@@H](O[C@H]2[C@H](Oc3cc(O)c4c(=O)cc(-c5ccc(O)c(O)c5)oc4c3)O[C@H](C(=O)O)[C@@H](O)[C@@H]2O)[C@H](O)[C@@H](O)[C@@H]1O: -1%
CSCCC(N)C(=O)O (racemic): -14%
CC(O)CC(=O)O (centres unmarked): 16%
O=C(/C=C/C=C/c1ccccc1)CCc1ccccc1: 15%
O=C(O)[C@H]1O[C@@H](Oc2cc(O)c3c(=O)cc(-c4ccc(O)cc4)oc3c2)[C@H](O)[C@@H](O)[C@@H]1O: -10%
CCOc1cc(N)c(Cl)cc1C(=O)NCC1CN(Cc2ccc(F)cc2)CCO1 (centres unmarked): 12%
O=C(O)/C=C(/CC(=O)O)C(=O)O: 42%
CCCc1nn(C)c2c(=O)[nH]c(-c3cc(S(=O)(=O)N4CCN(CCO)CC4)ccc3OCC)nc12: -9%
CC1(S(=O)(=O)O)CC(=O)c2ccccc2C1=O (centres unmarked): -3%

Block 3
SMILES: C[C@@H]1CN(c2cc(-c3nn(C)c4ccc(OC5(C)CC5)cc34)ncn2)C[C@H](C)O1
Read-out: cell-free assay
Technique: competition with immobilised ligand
Concentration: 1 µM
Measurement: remaining binding
Ankyrin repeat and protein kinase domain-containing protein 1 (ANKK1, Homo sapiens, UniProt Q8NFD2): 67%
Ribosomal protein S6 kinase alpha-5, C-terminal kinase domain (RPS6KA5, Homo sapiens, UniProt O75582): 79%
cAMP-dependent protein kinase catalytic subunit alpha (PRKACA, Homo sapiens, UniProt P17612): 95%
Beta-adrenergic receptor kinase 1 (GRK2, Homo sapiens, UniProt P25098): 68%
Serine/threonine-protein kinase Sgk1 (SGK1, Homo sapiens, UniProt O00141): 47%
Cyclin-dependent kinase 11B (CDK11B, Homo sapiens, UniProt P21127): 88%
Calcium/calmodulin-dependent protein kinase type 1B (PNCK, Homo sapiens, UniProt Q6P2M8): 100%
ALK tyrosine kinase receptor (ALK, Homo sapiens, UniProt Q9UM73): 64%
LIM domain kinase 1 (LIMK1, Homo sapiens, UniProt P53667): 95%
Tyrosine-protein kinase JAK1, JH2 (JAK1, Homo sapiens, UniProt P23458): 84%
Protein-tyrosine kinase 2-beta (PTK2B, Homo sapiens, UniProt Q14289): 77%
Phosphatidylinositol 4,5-bisphosphate 3-kinase catalytic subunit alpha isoform (PIK3CA, Homo sapiens, UniProt P42336, E545A): 100%
Membrane-associated tyrosine- and threonine-specific cdc2-inhibitory kinase (PKMYT1, Homo sapiens, UniProt Q99640): 100%
Tyrosine-protein kinase Mer (MERTK, Homo sapiens, UniProt Q12866): 83%

Block 4
Target: Eukaryotic initiation factor 4A-III (Homo sapiens, UniProt P38919)
UniProt P38919, sequence (whole entry, looked up): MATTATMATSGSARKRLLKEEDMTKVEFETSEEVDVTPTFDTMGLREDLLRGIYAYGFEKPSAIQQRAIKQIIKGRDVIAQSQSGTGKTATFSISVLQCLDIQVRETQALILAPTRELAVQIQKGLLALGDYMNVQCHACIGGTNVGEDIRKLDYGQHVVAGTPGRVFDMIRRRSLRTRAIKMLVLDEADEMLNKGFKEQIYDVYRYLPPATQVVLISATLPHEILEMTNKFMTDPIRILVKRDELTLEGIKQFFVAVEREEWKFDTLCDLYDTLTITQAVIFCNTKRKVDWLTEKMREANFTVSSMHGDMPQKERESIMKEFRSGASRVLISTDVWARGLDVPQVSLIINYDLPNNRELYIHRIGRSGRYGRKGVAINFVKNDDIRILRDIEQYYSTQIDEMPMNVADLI
Read-out: RNA clamping
Technique: fluorescence polarization
Concentration: concentration not given
With: FAM-labelled poly r(AG)8 RNA
Measurement: fluorescence polarization change
COC(=O)[C@H]1C(=O)[C@@]2(NCCN(C)C)c3c(OC)cc(OC)cc3O[C@@]2(c2ccc(OC)cc2)[C@@H]1c1ccccc1: 4.5 mP
COC(=O)[C@@H]1[C@@H](c2ccccc2)[C@]2(c3ccc(OC)cc3)Oc3cc(OC)cc(OC)c3[C@@]1(O)C2(O)O: -0.5 mP
COc1ccc([C@@]23Oc4cc(OC)cc(OC)c4[C@]2(O)c2nc(-c4cccc(OCc5ccccc5)c4)[nH]c(=O)c2[C@H]3c2ccccc2)cc1: -1.6 mP
C#CCNC(=O)COc1cc(OC)c2c(c1)O[C@@]1(c3ccc(OC)cc3)[C@H](c3ccccc3)c3c(nc(-c4ccccc4)[nH]c3=O)[C@@]21O: 8.8 mP
COC(=O)[C@@H]1[C@@H](c2ccccc2)[C@]2(c3ccc(OC)cc3)Oc3cc(OC)cc(OC)c3[C@@]23N=C2CCCCN2[C@@]13O: 25.4 mP
C#CCCC(=O)O[C@@H]1[C@H](C(=O)c2ccco2)[C@@H](c2ccccc2)[C@]2(c3ccc(OC)cc3)Oc3cc(OC)cc(OC)c3[C@]12O: 6.7 mP
COc1ccc([C@@]23Oc4cc(OC)cc(OC)c4[C@]2(O)[C@H](O)[C@H](CN(C)C)[C@H]3c2ccccc2)cc1: 40.7 mP
COc1ccc([C@@]23Oc4cc(OC)cc(OC)c4[C@]2(O)[C@H](O)[C@H](C(=O)c2ccco2)[C@H]3c2ccc(O)cc2)cc1: 7 mP
COc1ccc([C@@]23Oc4cc(OC)cc(OC)c4[C@]2(O)C=C(C(=O)c2ccco2)[C@H]3c2ccccc2)cc1: 27.8 mP
COc1ccc([C@@]23Oc4cc(OC)cc(OC)c4[C@]2(O)[C@H](O)[C@H](C(=O)c2ccccc2OC)[C@H]3c2ccccc2)cc1: 5.8 mP
